# Assay results gathered from unrelated publications.
# Numbered parts are unrelated; each lists some results of a single study.

# Set 1 — technique: RNA Bind-n-Seq; molecule type: RNA; sample: in vitro; tested at: not given; baseline: input RNA pool; direction: higher = stronger binding
# Target: RING finger protein unkempt homolog, zinc fingers 1-6, GST-SBP tag (UNK, Homo sapiens, UniProt Q9C0B0, residues 30-357)
# Setting: RNA with constant flanks, human-mouse chimeric sites, ends assumed
# Shared flanks, not repeated: GGGAGUUCUACAGUCCGACGAUC … CAACAGAGGAUUGAGCAUCA
# Target sequence (chain): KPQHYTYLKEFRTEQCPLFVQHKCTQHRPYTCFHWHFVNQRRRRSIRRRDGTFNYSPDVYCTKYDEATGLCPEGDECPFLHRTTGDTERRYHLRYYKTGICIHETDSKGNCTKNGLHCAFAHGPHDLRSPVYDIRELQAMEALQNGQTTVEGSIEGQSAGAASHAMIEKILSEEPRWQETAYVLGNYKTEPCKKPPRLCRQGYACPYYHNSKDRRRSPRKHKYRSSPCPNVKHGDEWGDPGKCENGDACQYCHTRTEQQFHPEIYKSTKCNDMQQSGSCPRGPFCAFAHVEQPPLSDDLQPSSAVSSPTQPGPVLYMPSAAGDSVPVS
Strand,bound/input enrichment
UUUCUACUGCAGCAAACGAUGCUAAGAAUUAAGGAUCCUAAGAAGUCCCUGGAUUUUUAUACUAGAGUUCUUGGACUGACCCUCCUGCAGAAGCUUGAUUUUCCCAUUAUGAAGUUCUCG,0.414 ratio
AGAGCCCAGGAUGUUGAUGCUACAAACCCAAAUUACGAAAUUAUGUGUAUGAUCAGAGACUUUAGAGGGAGCUUGGAUUACAGACCCCUAACAACAGCAGAUCCUAUUGAUGAACAUAGG,0.491 ratio
AGCACAACCCCAGCAAAGCUAAGAAAUCCUUGUACAAGUGAACAAAACUGCACCAGCCCAUUUAGCUACAAAAAUGUGCUCAGUCUUACUAAUAAAGGAGAGUUUUUCAAUGAACUUGUU,0.718 ratio
AAAGGCAAAAAGGGCAGCUGUGUCAUUUCAUAAGUAACUCUGGGGGAUAAGUGGAAGGUUCUUUUGUUUAAUUUUCCCCCAAAUGAAGCCAAAGUGUGUGUUGAAGAACUGAGAAAAAAU,0.149 ratio
CUUAUGGCUGCAGAAACAGGAAGUGGAAAAACUGGUGCAUUUAGUAUUCCAGUUAUCCAGAUAGUGUAUGAAACUCUGAAAGACCAACAGGAAGGAAAGAAAGGGAAAACAACUAUUAAA,0.637 ratio
AAAGAGUGGAUAGAGUGUGCACACGGGAUCGGUGGGACUCGGGCAGAAAAGGAGUGCAAGAUAGAGUUCGAUGACUUCGAAGAGUGCUUGCUUCGGCACAAAACGAUGAGGCGAAUGCAU,0.313 ratio
GGACCAUAAUCAUGGAGGACAUAAUGCAGCUCCCCAAAGCGCGCGUCAACGCCAGCAUGUUACCACAGUAUAUCGACCGGCCCGUGUGCUUCGUGGGGAAGCUGGAAAAGAUUCAUCCCA,0.0959 ratio
UCCCAAAUUAUAAGGCAAGAAGGAGCCUUGAGACAAACACUCCACACGCAGGGAGGGCGAUAACAUUGUACAUUGGUUUACAUUUUUUCCCCCUGUGGAUUUUUCUAGAGGUCAUAGUGC,0.379 ratio
UACUCAACUUUCUUGCCACAUUUUGAAUUCCAAGACAUUAUUCCUCCAGAUGACUUCCUAACUAGUGAUGAAGAGCAAGAUUUGGUUUUAUUUGGAACUAUGAGAGGUCAUGUGGUUGGA,0.391 ratio
AAAGAGAAACUAAAGCAACUAAUAGAGAAGAGGAUUGGGCAAAGAGAUUUCAUAGAGAAACUAGGAUUUAUUAGCAAAACAUGAGUUUAUUCCAGAGCGUCUCAGAAACCCCAGCCAAAC,5.72 ratio
CACACACUCUUCUGCGGGACCCUCAUCUUGCAGGCCCGGGCCUAUGUGGGACCGCACGUCCUGGCAGUGGUGACCCGGACAGGGUUCUGCACAGCCAAAGGGGGCCUGGUGAGCUCCAUC,0.0471 ratio

# Set 2 — technique: RNA Bind-n-Seq; molecule type: RNA; sample: in vitro; tested at: 365 nM; baseline: no-protein control; direction: higher = stronger binding
# Target: RNA binding protein fox-1 homolog 2, RRM domain, GST-SBP tag (RBFOX2, Homo sapiens, UniProt O43251-10, residues 100-194)
# Setting: natural RNA segment, single round, ends assumed
# Shared flanks, not repeated: GGGAGUUCUACAGUCCGACGAUC … UGGAAUUCUCGGGUGCCAA
# Residues (chain): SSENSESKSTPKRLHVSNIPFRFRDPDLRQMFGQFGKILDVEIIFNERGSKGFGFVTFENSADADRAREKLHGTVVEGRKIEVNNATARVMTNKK
Strand,RBNS enrichment (R)
CACUUCAGAGUUUGGGGUUUUGUCUUGAUUGUAGAUUGGCCCAGAAUUGCAUUCUGAUGAAUAAAGGAAAAAAAAAAAAAAAAUCCCAUGGUGUGCAUUUCUCUAUGAUG,1.25
UUAAGUUAUUUUAAUGUGGUUUAGGGGCAAAAUGUGCAGAUACUUCAUUUUUGUAAGAUAGAUUGUAAUAGAUGCUGUUUAUACUAAACAUGUCAUAACUAUCUAUACAG,0.623
AAGGAGCAGGCGGAGGGGAGUACACUUUCAUGUGAUUUAAUUUUGAUCCUGCCCUCUCCAGCUGCUCCUUCAAAAGAUACAUCAAAAGAUAGAAACUCUGGGCUGGGCAC,0.303
AGUAGAUGGUUGCCAUGAUUGCAUCAGAGACCUGGGCCAUGGCUACCAGCUUCUGGGGCUCACUGCAGUCUUCCCUGGGUCUUCCCUUCAAAUGCCCAUGGCGUUUAUCC,0.224
CGCCCAGUUUCUGAGGUCAGACGAGUGUCUGCGAUGUCUUCCCGCACUCUAUUCCCCCAGCCUCUUUCUGCUUUCAUGCUCAGCACAUCAUCUUCCUAGGCAGUCUCUUC,0.705
GUAUUAUGCAGAAAGUUAAUGCAGAUACCUAUUCAAGAUGAUAACUGUAAAGACACUGCUGUCUCCUUAAUAUGCUCCUUAACACGUAUGUUGAUGUAGCAUCAUUUUGU,0.581
GUGGCUUUUCAUGUUCUCCUUUAGCCAAGGCUCCCUUUUUCCAAGUGAUGUCUUUCAGGGAAGCAGUGUUUGAAAUAGAUAGCGGGUACCUUCCCUGGAUGGAGUCAGGG,0.402
GCUUCCUGGUUAUCACUUACAUUCCGUAAGGAGCUGUUCCUUAGGACCGGUUGGAAGUAGAAGAAACAUCUCUCCCUGCACCCGAAUGUCCAGUGGAGCCUCAAGUUUUC,0.211
AAAGACUUCUCAGCUCUGACCUGCCUGCCUCCUUGGAAUUAGACUUGAACUUCUGAUCCUGCCUAUCUGUUCUAUGUGAGUGGCAUCUGGGCCCCUAACCUGUCAGUUCA,1.09
CAUGAAGGUGGUUGUGAUUAAGAAGAUGGUUUUGUUAUUAAAUAGCAUUAAACUGGAAUUGACAAGAGUGUUGAGCAUCCCUGUCUAACCUGCUCUUUCUCUUUGGUGCC,0.352
UCUGCUCAUUCCUUGGUUUGUCUUGGGUCCCACUGGGCAGGUGUCUAGCACUGAGAGGGAGAGUGUAGACAAGGGAGCCACGGAGGUACUGGAGGCAGCAAUUCCUCAUC,0.73
GACUAGAACUUAACGGAACAAGUCUAGGACAGAAGUUAAGAUCUGAUUAUUUACUUUGUUUAUUGUCUAUAUGCCUUUUAAAAAAAUAAACUUGUUAUGCAAAAUAAAAC,0.856

# Set 3 — technique: EMSA with sequencing; molecule type: double-stranded DNA, one strand shown; sample: in vitro; tested at: 10 and 20 nM; baseline: negative control set to 0; direction: higher = stronger binding
# Target: Hepatocyte nuclear factor 3-alpha (Foxa1, Mus musculus, UniProt P35582, residues 1-468, full length assumed)
# Setting: whole designed probe, mean of two concentrations, ends assumed
# Shared flanks, not repeated: GTGAGCGGTGCCCATTGATGGGGAAC … TTTCACTGGGATCGTGGGGAC
# Construct (chain): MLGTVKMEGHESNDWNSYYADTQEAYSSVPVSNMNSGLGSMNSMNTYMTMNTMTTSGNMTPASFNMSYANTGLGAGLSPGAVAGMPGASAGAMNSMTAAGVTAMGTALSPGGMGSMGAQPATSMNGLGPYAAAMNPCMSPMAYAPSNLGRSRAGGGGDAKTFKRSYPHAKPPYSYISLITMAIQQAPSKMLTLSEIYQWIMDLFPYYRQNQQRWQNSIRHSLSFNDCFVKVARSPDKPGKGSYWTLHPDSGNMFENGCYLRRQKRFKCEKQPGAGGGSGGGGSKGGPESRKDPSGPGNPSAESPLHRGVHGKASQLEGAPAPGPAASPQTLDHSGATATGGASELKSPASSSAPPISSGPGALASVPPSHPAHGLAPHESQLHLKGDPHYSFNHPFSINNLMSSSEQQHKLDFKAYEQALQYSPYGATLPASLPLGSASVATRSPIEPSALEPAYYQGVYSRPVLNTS
Strand,normalised bound fraction [ratio]
AAACAGTTCTGTTAGGAAAGATCAGCAAACACCACGTGCAGCAACTCAACAAGCATCTCTATCCTGCCTCTGGCGAGCACATGTTATTTCTAAGCCATCTGCGCCACCTAGTGGAAATATAAATCCTCTTCATGTGGCAAATCGCCGGTGTTTTACAGTAATACTGCAGCTTCTCAATTCTTTCTTTTTGCAC,0.0604
TGGCCTTCTGGCCCTATCTGCTCCGTGCCCAACCCAGCGCCCCGCACAGTCGGAGCTTTGTAATTTCGAGGTGACTGTCTGCCTACAAACTTTGTAATCTTCACTTGAAATGGCCGCAGGGTATTGTGACATGGCCATACCACTATTTGTTTGCTATTGAATTTGTACTTCCCTGCCTTACTTTTGCTATTGC,0.24
TCGGCCAGCCTGGCTTCTGCGCCCCGCCAGGAGGTCGCGGAGCGGAGCGCGGCCAGGAAGTGAGCTGAGAGTGACAGCTCCCCCCACGCGAGAATAAACAAACAATGACTCATTCTCCACACACTGGCTCTTCTTTCTTTCGGGAGGAGGGGAGAAAGGAGCGGGAGGGCGGGCGGGCAGGGGAGAGGCAGGC,0.349
TGTGTGTGCGCGCGCGTGTGTGTGTGTTTTCTTAAGCCGGGCTATTCAAACCCTGCTGCAATTCTCCGGTAAACAATGATTCATGGGGCATAATGCAATTTAACGGATTGCAAACGGCGCGGTTCGCGCACTTTGCAGCCGGCCCGGTGGAGCAGCCAGTGCCGGATTTCTCCCTTTTTTTGCAGATCTGCAG,0.131
AACCAGCTACTTTGGTGACTCATTTTTCTCCCTAACCCATGCTATTATACACTAATCCATGCATAACTTCCCTTTAATACAGATGACACAGACTGTTTACTTAGGATGGTTTTGCAATATGCACACTAACAAAGACTTTGTGAGCAGGAAGAATACCAGTTATTCAACCAAGTTTAAGAAAACAGCTGAGTGG,0.436
GGGTCAGAGGAGCTTACAGTGAGTGGACAAAGCAAATATAATCCTGCCTTACTAATTTCGTAGGATATTCACCTTTCTGAAGTCACACAAATGTAAACATGAAAAATATTCATTATAAAAGAAACCTAGGGAAAGTGCAAACACTTGAAGAATGTGCATTTTTTACAATTGCATTTGTTTTATTCAAGCGCTT,0.419
ACTAAAGACGCTCTGCAATATTCATACCAAGAAGAATCCTTGGAAGAAAAACTAAGGAAACAATTCTAGCTTTCAAATCTAGAGTTGCTGCTAAGTAAACATAAAGATTTACTCAAGAAGATCCCTGAAATAATTCCTAAAGAAAATGAAAGGTCTTTAGAAACCAGGAAAATAAGTGTTAACTTGAAGTCTG,0.489
AATCAGTTAGAAAAAGATAACCTAGTAGAAAAATGGGCAGAAGGCTTGAGTAGACATTTCTCAAAGAAAACATCCATGTGGAAAAATAATTTAGCAATTTAAGCCAACCATGTGAAAAGGTACCTGACTTCATTAATCATCAAGGGAATGCAAATGAACGTCACGATGCACCACTGCACACTCACCGGAAGGC,-0.0122

# Set 4 — technique: aptamer microarray, sandwich; molecule type: DNA with 2'F-ANA; sample: in vitro; tested at: 200 nM; together with: Cy3 exosite-II aptamer, 400 nM; direction: higher = stronger binding; strand: GGTTGGTGTGGTTGG
# Target: Prothrombin, mature alpha-thrombin (F2, Homo sapiens, UniProt P00734)
# Setting: whole 15-mer aptamer, many near background
Modification,mean fluorescence intensity [a.u.]
2'F-ANA at 1 2 3 4 6 8 9 11 14,55.1
2'F-ANA at 1 3 9 10 15,81
2'F-ANA at 3 6 8 10 11 12 13 14 15,326
2'F-ANA at 2 3 4 5 9 11 15,75.5
2'F-ANA at 2 5 6 9 10 15,62
2'F-ANA at 1 2 4 7 9 10 13 15,50.1
2'F-ANA at 5 6 7 9 10 14 15,109
2'F-ANA at 2 3 4 5 6 8 12 13 14,51.8
2'F-ANA at 1 2 3 5 6 8 10 12 13 14,67.8
2'F-ANA at 1 3 5 12 13 14,43.4
2'F-ANA at 2 3 6 8 9 12,1120
2'F-ANA at 1 4 5 10 11,60.6
2'F-ANA at 1 4 9 11 12 13 15,153
2'F-ANA at 1 2 3 5 7 8 10 12 13,48.8
2'F-ANA at 2 4 6 7 9 10 11 14,195
2'F-ANA at 1 2 4 6 7 10 12 13,49.7
2'F-ANA at 2 3 4 5 7 10 11 13,48.8
2'F-ANA at 2 5 6 8 12 13 14 15,47.2
2'F-ANA at 1 2 3 4 7 9 10 11 12 14,69.8
2'F-ANA at 2 5 6 7 8 9 12 13 14 15,58.9
2'F-ANA at 2 5 6 7 9 10 13,44.8
2'F-ANA at 5 6 9 11 12 13 15,83.3
2'F-ANA at 1 2 5 10 11 13 14,44.7
2'F-ANA at 4 8 10 11 12 13 14,55.9
2'F-ANA at 1 4 7 10 11 12 13 15,51.8

# Excerpt of the above (set 4):
Modification,mean fluorescence intensity [a.u.]
2'F-ANA at 2 5 6 9 10 15,62
2'F-ANA at 1 2 4 7 9 10 13 15,50.1
2'F-ANA at 5 6 7 9 10 14 15,109
2'F-ANA at 2 3 4 5 6 8 12 13 14,51.8
2'F-ANA at 1 2 3 5 6 8 10 12 13 14,67.8
2'F-ANA at 1 3 5 12 13 14,43.4
2'F-ANA at 2 3 6 8 9 12,1120
2'F-ANA at 1 4 5 10 11,60.6
